Published values pooled from the literature.
Compare with care: the assays were run in different laboratories. “And” joins repeats or separate records; there may be more than shown. ± marks the error that the study gave.
B1: human RAB8B; sequence looked up; chain MAKTYDYLFKLLLIGDSGVGKTCLLFRFSEDAFNTTFISTIGIDFKIRTIELDGKKIKLQIWDTAGQERFRTITTAYYRGAMGIMLVYDITNEKSFDNIKNWIRNIEEHASSDVERMILGNKCDMNDKRQVSKERGEKLAIDYGIKFLETSAKSSANVEEAFFTLARDIMTKLNRKMNDSNSAGAGGPVKITENRSKKTSFFRC
B2: coatomer subunit beta, human; sequence looked up; chain TAAENVCYTLINVPMDSEPPSEISLKNDLEKGDVKSKTEALKKVIIMILNGEKLPGLLMTIIRFVLPLQDHTIKKLLLVFWEIVPKTTPDGRLLHEMILVCDAYRKDLQHPNEFIRGSTLRFLCKLKEAELLEPLMPAIRACLEHRHSYVRRNAVLAIYTIYRNFEHLIPDAPELIHDFLVNEKDASCKRNAFMMLIHADQDRALDYLSTCIDQVQTFGDILQLVIVELIYKVCHANPSERARFIRCIYNLLQSSSPAVKYEAAGTLVTLSSAPTAIKAAAQCYIDLIIKESDNNVKLIVLDRLIELKEHPAHERVLQDLVMDILRVLSTPDLEVRKKTLQLALDLVSSRNVEELVIVLKKEVIKTNNVSEHEDTDKYRQLLVRTLHSCSVRFPDMAANVIPVLMEFLSDNNEAAAADVLEFVREAIQRFDNLRMLIVEKMLEVFHAIKSVKIYRGALWILGEYCSTKEDIQSVMTEIRRSLGEIPIVESEIKKEAGELKPEEEITVGPVQKLVTEMGTYATQSALSSSRPTKKEEDRPPLRGFLLDGDFFVAASLATTLTKIALRYVALVQEKKKQNSFVAEAMLLMATILHLGKSSLPKKPITDDDVDRISLCLKVLSECSPLMNDIFNKECRQSLSHMLSAKLEEEKLSQKKESEKRNVTVQPDDPISFMQLTAKNEMNCKEDQFQLSLLAAMGNTQRKEAADPLASKLNKVTQLTGFSDPVYAEAYVHVNQYDIVLDVLVVNQTSDTLQNCTLELATLGDLKLVEKPSPLTLAPHDFANIKANVKVASTENGIIFGNIVYDVSGAASDRNCVVLSDIHIDIMDYIQPATCTDAEFRQMWAEFEWENKVTVNTNMVDLNDYLQHILKSTNMKCLTPEKALSGYCGFMAANLYARSIFGEDALANVSIEKPIHQGPDAAVTGHIRIRAKSQGMALSLGDKINLSQKKTSI

Under “diurnal variation (Cmax-Cmean)/Cmean”, `coproporphyrin I` is recorded as 37.1 ± 13.9% (human, plasma; dose not given, baseline period).
Under “log2 fold change”, `Polymyxin B` is recorded as -1.24 and -1.2 (untargeted LC-MS metabolomics, item: L-arginine; Sprague-Dawley rat, right cerebral cortex; intracerebroventricular, 0.75 mg/kg, 1 h; baseline: NaCl control).
For `coproporphyrin III`, the concentration ratio was 2.65 (human, serum; oral, 20 mg ezetimibe, 1.33 h, geometric mean ezetimibe alone; baseline: at 1.33 h over pre-dose).
With `Teicoplanin` the recovery was 99.3% (item: stability; human serum; 6 days, low QC, autosampler).
`B1 (human RAB8B)` — result for “log2 fold change”: -0.11 (CYB5R4 knockout human cells; PP6 interaction, 3xFLAG-PP6C IP-MS; concentration not given; baseline: CYB5R4 KO over parental).
For `CTOP`, the retention time was 5.17 min (RP-HPLC; HALO Peptide ES-C18 column; 25 µM, acetic acid/acetonitrile, 10 min gradient).
`FNA / CGLSGLGVA-NH2 ([18F]FNA-labelled, C-amide)` has a tissue uptake of 0.24 %ID/g (ex vivo gamma counting; peptide, glioblastoma mouse model, brain; 60 min post injection, together with: 500-fold excess CooP blocking).
`B2 (coatomer subunit beta, human)`: “log2 fold change” -0.82 (PP6C (human); co-immunoprecipitation, IP-MS; CYB5R4 knockout cells; concentration not given; baseline: CYB5R4 knockout over parental).
`regorafenib N-β-glucuronide`: “short-term stability accuracy” 98% (mouse plasma; 750 ng/mL, 8 h, room temperature).
`[177Lu]Lu-DOTA-TATE`: “intact radiolabelled peptide” 98.1 ± 0.7% (radio-HPLC; PBS; 2 h, 37 °C, 50 MBq/nmol).
The aspartate aminotransferase of `caspofungin` is reported as 27.3 U/L (adult ICU patients, mITT, serum; dose not given, EOT).
